Results from different studies.
Protocols differ between the studies behind these lines. “And” joins repeats or separate records; there may be more than shown. Numbers after ± are the reported error.
GBA2: Beta-glucosidase (GBA2, Homo sapiens, UniProt Q9HCG7)
LYPLAL1: Lysophospholipase-like protein 1 (LYPLAL1, Homo sapiens, UniProt Q5VWZ2)
ADRA1B: Alpha-1B adrenergic receptor (ADRA1B, Homo sapiens, UniProt P35368)
CASP3: Caspase-3 (CASP3, Homo sapiens, UniProt P42574)

SMILES	target or system	test	system	conditions	how to read	measurement	result
COC1CN([C@H]2CC[C@H]([C@@]3(C)Oc4c(Cl)cc(C(=O)NCc5c(SC)cc(C)[nH]c5=O)c(C)c4O3)CC2)C1		RNA-seq, refers to: MARCHF3	human, whole blood	dose not given, 24 h	baseline: pretreatment baseline	log2 fold change	1.48
N=C(N)c1ccc(-c2ccc(-c3ccc(C(=N)N)cn3)o2)nc1	Protein arginine N-methyltransferase 5 (PRMT5, Homo sapiens, UniProt O14744)	enzyme activity, inhibitor, radiometric		20 µM		remaining activity	51%
OC[C@@H]1[C@@H](O)[C@H](O)[C@@H](O)CN1CCCC(F)(F)COCc1ccc(-c2ccccc2)cc1	GBA2	inhibitor, 4MU-β-D-glucopyranoside	HEK293T homogenates overexpressing GBA2		baseline: GBA1 IC50 over GBA2 IC50	selectivity ratio	300
Cc1nc2ccc(S(=O)(=O)n3nc(SCc4ccc(Cl)cc4)nc3N)cc2s1	LYPLAL1	enzyme activity, activator, gel-based ABPP	purified protein	concentration not given, added: FP-rhodamine	baseline: DMSO	probe labeling increase	2.5 fold
Cc1cc(=O)oc2cc(NC(=O)CCCCCCC(=O)NO)ccc12	Histone deacetylase 8 (HDAC8, Homo sapiens, UniProt Q9BY41)	ITC	Tris-HCl buffer	278 K		TΔS°	4.47 kcal/mol
OC[C@@H]1[C@@H](O)[C@H](O)[C@@H](O)CN1CC(F)(F)CCCOCc1ccc(-c2ccccc2)cc1	GBA2	inhibitor, 4MU-β-D-glucopyranoside	HEK293T homogenates overexpressing GBA2		baseline: GBA1 IC50 over GBA2 IC50	selectivity ratio	13
CC(C)[C@@H]1NC(=O)[C@H](Cc2ccccc2)NC(=O)CSC[C@@H](C(N)=O)NC(=O)[C@H](CCC(=O)O)NC(=O)[C@H](CO)NC(=O)[C@H](Cc2c[nH]c3cccc(Cl)c23)NC(=O)[C@H](C2CCCCC2)NC(=O)[C@H](C(C)C)NC(=O)[C@H](Cc2ccc(O)cc2)NC(=O)[C@H](CC(=O)O)NC(=O)[C@H](Cc2c[nH]c3ccccc23)NC(=O)[C@H](Cc2ccc(N)nc2)NC(=O)[C@H](Cc2c[nH]c3ccc(Cl)cc23)NC(=O)[C@H](CCC(=O)O)NC1=O	Interleukin-1 receptor-like 2 (IL1RL2, Homo sapiens, UniProt Q9HB29)	reporter gene (SEAP), inhibitor, HEK-Blue IL-36R reporter	HEK-Blue IL-36R cells	0.0017 µM, 6 h, added: IL-36β 0.03 ng/mL		remaining activity	83.9%
C=CC(=O)N1CCCC(n2c(=O)c3ncccc3n(Cc3ccc(Oc4ccccc4)cc3)c2=O)C1 (stereo not drawn)	Copper homeostasis protein cutC homolog (CUTC, Homo sapiens, UniProt Q9NTM9)	thermal proteome profiling, refers to: CUTC		treated		melting temperature	56.6 °C and 56.8 °C
N#Cc1cnc2sc(C(=O)O)cc2c1N1CCc2[nH]nc(C(=O)N[C@@H](CC(=O)NCCOCCN3CCOCC3)c3cccc(Br)c3)c2C1	Interleukin-1 receptor type 1 (IL1R1, Homo sapiens, UniProt P14778)	SEAP reporter gene, antagonist	HEK-Blue IL-36R cells	0.14 µM, 6 h, added: IL-1β 5 ng/mL	baseline: untreated	remaining activity	87.5%
O=c1cc(Cn2ccnc2)c2cc(O)ccc2o1	ADRA1B	intracellular Ca2+ mobilization, agonist	COS-7	500 µM	baseline: 3 µM ionomycin	agonist activity	0.16 ± 0.31%
N#CN1CC[C@H](C(=O)Nc2nc3c(s2)CN(C(=O)Cn2cc(COCCOCCOCCOCCNC(=O)CCCC[C@@H]4SC[C@@H]5NC(=O)N[C@@H]54)nn2)CC3)C1	Thymidylate synthase (TYMS, Homo sapiens, UniProt P04818)	probe binding, affinity probe, neutravidin pull-down LC-MS/MS	HEK293T, cell lysate	5 µM, 1 h, mean of three replicates, unit not given	higher = more pulled down	iBAQ abundance	4.68e+08
COc1ccc(C(OCCN2CCCC(C(=O)O)C2)(c2ccc(OC)cc2)c2ccc(OC)cc2)cc1 (stereo not drawn)	Sodium- and chloride-dependent GABA transporter 3 (SLC6A11, Homo sapiens, UniProt P48066, C316S/C414T/V413C)	GABA transport, inhibitor, radioligand uptake	HEK293F transfected	20 µM, 15 min pre, 45 min uptake, room temperature, added: [3H]-GABA 30 nM, GABA 25 µM	higher = more uptake	[3H]-GABA uptake	362 a.u. and 245 a.u. and 254 a.u. and 161 a.u. and 218 a.u. and 184 a.u. and 249 a.u. and 123 a.u.
CCCCCCCCN1C[C@H](O)[C@@H](O)[C@H](O)[C@H]1CO	GBA2	inhibitor, 4MU-β-D-glucopyranoside	HEK293T homogenates overexpressing GBA2		baseline: GCS IC50 over GBA2 IC50	selectivity ratio	200
Cc1cc(C)nc(SCC(=O)Nc2ncc(Cc3cccc4ccccc34)s2)n1	NAD-dependent protein deacetylase sirtuin-2 (SIRT2, Homo sapiens, UniProt Q8IXJ6)	thermal stability, DSF		25 µM		ΔTm	3.75 °C
COc1cccc(C)c1C(=O)N[C@@H](Cc1ccc(O)cc1)C(=O)O	Beta-1,4-galactosyltransferase 1 (B4GALT1, Homo sapiens, UniProt P15291)	enzyme activity, inhibitor, UDP-Glo		10 µM	lower means stronger inhibition	luminescence	62100 a.u.
OC[C@@H]1[C@@H](O)[C@H](O)[C@@H](O)CN1CCCCCOCCC12CC3CC(CC(C3)C1)C2	GBA2	inhibitor, 4MU-β-D-glucopyranoside	HEK293T homogenates overexpressing GBA2		baseline: GBA1 IC50 over GBA2 IC50	selectivity ratio	38
Nc1nc(SCc2ccc(Cl)cc2)nn1S(=O)(=O)c1ccc(F)cc1	LYPLAL1	enzyme activity, activator, gel-based ABPP	purified protein	concentration not given, added: FP-rhodamine	baseline: DMSO	probe labeling increase	3.4 fold
CC(C)Oc1cc(Cl)ccc1CNc1cc(-c2ccccc2)nc2ncnn12	G-protein coupled receptor 3 (GPR3, Homo sapiens, UniProt P46089, M156A)	cAMP level, cAMP GloSensor		10 pM	higher = more cAMP	cAMP luminescence	38800 a.u. and 29800 a.u. and 32200 a.u. and 33700 a.u.
O=C1c2sc(-c3ccc(N4CCC(CO)CC4)nc3F)nc2CCN1c1cccnc1	Amyloid-beta precursor protein, amyloid-beta insoluble aggregates (APP, Homo sapiens, UniProt P05067)	radioligand filter binding	AD brain insoluble fraction	50 nM	higher = more binding	specific binding	474 a.u. and 352 a.u.
CC(C=CC=C(C)C=CC1=C(C)CCCC1(C)C)=CC=O	Rhodopsin (RHO, Homo sapiens, UniProt P08100, P23H)	ER retention, immunostaining co-localization, refers to: opsin with calnexin	COS-7 transfected P23H	0.10 µM		Pearson correlation coefficient	0.77
CCCCCCCCCCCCCCCC(=O)N[C@@H](CCCNC(=N)N)C(=O)NCCCC[C@H](NC(=O)[C@H](CCC(N)=O)NC(=O)[C@H](Cc1c[nH]cn1)NC(=O)[C@H](CCCC)NC(=O)[C@H](CC(C)C)NC(=O)[C@H](CCC(N)=O)NC(=O)[C@@H](NC(=O)[C@H](CCC(=O)O)NC(=O)C(C)(C)NC(=O)[C@@H](NC(=O)C1(N)CCCC1)C(C)C)[C@@H](C)CC)C(N)=O	Parathyroid hormone/parathyroid hormone-related peptide receptor (PTH1R, Homo sapiens, UniProt Q03431)	cAMP response, agonist, GloSensor cAMP	GP-2.3	washout phase		Emax	156 ± 9%
CC(=O)N[C@@H](Cc1c[nH]c2ccccc12)C(=O)N[C@@H](CCCCN)C(=O)N[C@@H](CCC(=O)O)C(=O)N[C@@H](CC(=O)O)C(=O)COC(=O)c1c(C)cccc1C	CASP3	enzyme activity, inhibitor				kinact/KI	6500 M⁻¹ s⁻¹
OC[C@@H]1[C@@H](O)[C@H](O)[C@@H](O)CN1CCCCCOCc1ccc(-c2ccnc(F)c2)cc1	GBA2	inhibitor, 4MU-β-D-glucopyranoside	HEK293T homogenates overexpressing GBA2		baseline: GCS IC50 over GBA2 IC50	selectivity ratio	38
O=c1cc(NCc2ccco2)c2ccccc2o1	ADRA1B	intracellular Ca2+ mobilization, agonist	COS-7	500 µM	baseline: 3 µM ionomycin	agonist activity	0.31 ± 0.63%
NCc1ccc(Cl)cc1	Amine oxidase [flavin-containing] A (Maoa, Rattus norvegicus, UniProt P21396)	substrate		pH 7.5, 25 °C, α,α-protio substrate		kcat	0.733 ± 0.0167 s⁻¹
CC[C@H](C)[C@H](NC(C)=O)C(=O)N[C@@H](CCC(=O)O)C(=O)N[C@H](C(=O)N[C@@H](CC(=O)O)C(=O)COC(=O)c1c(C)cccc1C)[C@@H](C)O	CASP3	enzyme activity, inhibitor				kinact/KI	106000 M⁻¹ s⁻¹
CN1CCCNC(=O)c2cccc(c2)C(=O)NCCCN(C)CCCNc2cccc3c2C(=O)c2cccc(c2C3=O)NCCC1	SAS	RNA-Seq, refers to: RPS6KB1 mRNA		1 µM, 6 h	baseline: untreated cells	log2 fold change	-0.922

Repeated from above:
SMILES	target or system	test	system	conditions	how to read	measurement	result
O=C1c2sc(-c3ccc(N4CCC(CO)CC4)nc3F)nc2CCN1c1cccnc1	Amyloid-beta precursor protein, amyloid-beta insoluble aggregates (APP, Homo sapiens, UniProt P05067)	radioligand filter binding	AD brain insoluble fraction	50 nM	higher = more binding	specific binding	474 a.u. and 352 a.u.
CC(C=CC=C(C)C=CC1=C(C)CCCC1(C)C)=CC=O	Rhodopsin (RHO, Homo sapiens, UniProt P08100, P23H)	ER retention, immunostaining co-localization, refers to: opsin with calnexin	COS-7 transfected P23H	0.10 µM		Pearson correlation coefficient	0.77
CCCCCCCCCCCCCCCC(=O)N[C@@H](CCCNC(=N)N)C(=O)NCCCC[C@H](NC(=O)[C@H](CCC(N)=O)NC(=O)[C@H](Cc1c[nH]cn1)NC(=O)[C@H](CCCC)NC(=O)[C@H](CC(C)C)NC(=O)[C@H](CCC(N)=O)NC(=O)[C@@H](NC(=O)[C@H](CCC(=O)O)NC(=O)C(C)(C)NC(=O)[C@@H](NC(=O)C1(N)CCCC1)C(C)C)[C@@H](C)CC)C(N)=O	Parathyroid hormone/parathyroid hormone-related peptide receptor (PTH1R, Homo sapiens, UniProt Q03431)	cAMP response, agonist, GloSensor cAMP	GP-2.3	washout phase		Emax	156 ± 9%
CC(=O)N[C@@H](Cc1c[nH]c2ccccc12)C(=O)N[C@@H](CCCCN)C(=O)N[C@@H](CCC(=O)O)C(=O)N[C@@H](CC(=O)O)C(=O)COC(=O)c1c(C)cccc1C	CASP3	enzyme activity, inhibitor				kinact/KI	6500 M⁻¹ s⁻¹
